Experimental data from different studies.
Every numbered part comes from another study and shows a few of its results, in no order. Changes are numbered by the printed parent chain.

Sample 1 — technique: DNA-protein interaction ELISA; form: double-stranded DNA, one strand shown; matrix: in vitro, bacterial lysate; concentration: not given; notes: whole dsDNA probe, crude lysate protein; baseline: highest signal in screen; reading: higher = stronger binding; measurement: relative absorbance
Target: Probable WRKY transcription factor 50, DNA-binding domain (WRKY50, Arabidopsis thaliana, UniProt Q8VWQ5, residues 99-173)
Target sequence (chain): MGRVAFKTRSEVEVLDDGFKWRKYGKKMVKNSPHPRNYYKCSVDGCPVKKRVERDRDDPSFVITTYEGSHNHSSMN
AAAAAATAAGTAACCGAACGAAACTCAAAA: 18.1 % of maximum
AAAAAATGCCATTGTACCTGTGTTCGAAAA: 10.6 % of maximum
AAAAAATCCATTCTTCGCGTTTATCCAAAA: 33.5 % of maximum
AAAAAAGTGTTAGATTGTAGTTGATAAAA: 19.5 % of maximum
AAAAAAGCTCATGGCCCTGAGGATCTAAAA: 24.3 % of maximum
AAAAAACTAACCGTCGCAGGCGTGTGAAAA: 15.1 % of maximum
AAAAAATAAACGTGTTCATACTTAGTAAAA: 11.7 % of maximum
AAAAAAAAGCGTTACATCATATGGAAAAAA: 14.9 % of maximum

Sample 2 — technique: DHFR PCA, deep sequencing; matrix: yeast; together with: (+)-ABA 200 µM; baseline: wild-type fitted maximum; reading: higher = stronger binding; measurement: relative binding score
Target: ABI1, truncated, D143A, DHFR fusion (Arabidopsis thaliana)
Notes: methotrexate growth selection, single substitutions
Starting sequence: PYL1, truncated, DHFR fusion (Arabidopsis thaliana); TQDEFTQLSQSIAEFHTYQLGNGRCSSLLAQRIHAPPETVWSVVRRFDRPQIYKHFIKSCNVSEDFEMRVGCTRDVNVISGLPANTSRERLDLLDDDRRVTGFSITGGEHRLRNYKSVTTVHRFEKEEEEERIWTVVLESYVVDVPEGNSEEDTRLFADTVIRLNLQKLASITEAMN
H110P: 28.7%
N149D: 48.7%
R123E: 110%
S171V: 94.9%
A170M: 93.8%
G71F: 42.7%
E128F: 102%
V76S: 45.9%

Mixed results — P1: viral docking peptide; KKAKRRLFTISDS
MAST3 (Homo sapiens, UniProt O60307) — cross-linked residues (USP24 (Homo sapiens, UniProt Q9UPU5); cross-linking MS; cell fractions; together with: DMTMM): K1053 to E1864
P1 S13A — normalised enrichment score (CCNB1, cyclin fold, Cln2 fusion (human); yeast growth competition, sequencing; yeast; weak parent motif; baseline: not given, higher = stronger binding): 0.697
RFC1 (Homo sapiens, UniProt P35251) — interaction screen (RFC3 (Homo sapiens, UniProt P40938); cross-linking MS; hits only): cross-linked
CCT3 (Homo sapiens, UniProt P49368) — interaction screen (PDCL3 (Homo sapiens, UniProt Q9H2J4); cross-linking MS; hits only): cross-linked
PSMA2 (Homo sapiens, UniProt P25787) — interaction screen (PSMA4 (Homo sapiens, UniProt P25789); cross-linking MS; hits only): cross-linked

Repeated from above (sample 1):
AAAAAATCCATTCTTCGCGTTTATCCAAAA: 33.5 % of maximum
AAAAAAGTGTTAGATTGTAGTTGATAAAA: 19.5 % of maximum
